Measured values of several laboratories.
Numbered parts are unrelated; each lists some results of a single study.
Chain of UniProt Q99558 (whole entry, looked up): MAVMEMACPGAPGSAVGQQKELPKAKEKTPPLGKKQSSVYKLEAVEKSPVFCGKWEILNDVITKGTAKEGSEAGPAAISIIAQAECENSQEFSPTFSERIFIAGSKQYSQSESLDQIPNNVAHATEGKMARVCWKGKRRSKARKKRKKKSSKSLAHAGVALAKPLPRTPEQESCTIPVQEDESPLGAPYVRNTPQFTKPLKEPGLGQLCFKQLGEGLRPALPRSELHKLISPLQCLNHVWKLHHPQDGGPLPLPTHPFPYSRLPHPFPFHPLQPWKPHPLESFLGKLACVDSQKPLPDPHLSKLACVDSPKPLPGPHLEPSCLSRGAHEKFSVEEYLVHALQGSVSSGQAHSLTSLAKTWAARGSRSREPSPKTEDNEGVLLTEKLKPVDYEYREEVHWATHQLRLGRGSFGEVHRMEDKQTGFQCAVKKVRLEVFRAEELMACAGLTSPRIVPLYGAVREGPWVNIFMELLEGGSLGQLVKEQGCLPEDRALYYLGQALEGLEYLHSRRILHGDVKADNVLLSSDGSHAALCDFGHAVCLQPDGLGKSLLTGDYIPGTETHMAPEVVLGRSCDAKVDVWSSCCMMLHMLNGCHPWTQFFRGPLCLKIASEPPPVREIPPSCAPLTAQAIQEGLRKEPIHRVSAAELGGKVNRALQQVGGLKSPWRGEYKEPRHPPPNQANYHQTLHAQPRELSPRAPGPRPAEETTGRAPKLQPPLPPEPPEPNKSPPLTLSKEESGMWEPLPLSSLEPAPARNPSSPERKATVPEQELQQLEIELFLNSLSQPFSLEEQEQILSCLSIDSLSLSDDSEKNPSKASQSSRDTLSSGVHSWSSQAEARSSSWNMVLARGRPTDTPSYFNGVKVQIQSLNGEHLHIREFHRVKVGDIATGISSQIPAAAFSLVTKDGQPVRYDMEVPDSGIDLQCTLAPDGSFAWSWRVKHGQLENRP
Chain of UniProt P36507 (whole entry, looked up): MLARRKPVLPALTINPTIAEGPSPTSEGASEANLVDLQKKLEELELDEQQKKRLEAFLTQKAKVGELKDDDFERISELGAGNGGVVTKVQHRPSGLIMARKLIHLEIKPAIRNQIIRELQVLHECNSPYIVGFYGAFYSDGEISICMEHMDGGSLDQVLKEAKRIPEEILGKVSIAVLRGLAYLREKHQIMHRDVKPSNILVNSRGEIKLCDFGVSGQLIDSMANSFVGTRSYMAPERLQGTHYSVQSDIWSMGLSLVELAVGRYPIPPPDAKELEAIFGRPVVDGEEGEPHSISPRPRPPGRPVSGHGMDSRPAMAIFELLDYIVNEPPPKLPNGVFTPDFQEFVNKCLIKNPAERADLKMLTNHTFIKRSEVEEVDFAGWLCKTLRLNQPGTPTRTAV
Chain of UniProt P49137 (whole entry, looked up): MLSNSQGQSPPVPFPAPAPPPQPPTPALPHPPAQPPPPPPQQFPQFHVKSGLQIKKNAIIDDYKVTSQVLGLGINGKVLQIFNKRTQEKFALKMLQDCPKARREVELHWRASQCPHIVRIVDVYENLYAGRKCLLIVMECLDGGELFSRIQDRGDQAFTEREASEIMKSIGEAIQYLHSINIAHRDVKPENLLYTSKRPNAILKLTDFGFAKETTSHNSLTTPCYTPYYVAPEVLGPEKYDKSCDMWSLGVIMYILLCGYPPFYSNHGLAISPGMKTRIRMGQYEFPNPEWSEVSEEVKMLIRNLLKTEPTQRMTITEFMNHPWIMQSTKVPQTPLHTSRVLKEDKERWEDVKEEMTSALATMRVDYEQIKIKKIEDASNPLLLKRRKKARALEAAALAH
Chain of UniProt P51812 (whole entry, looked up): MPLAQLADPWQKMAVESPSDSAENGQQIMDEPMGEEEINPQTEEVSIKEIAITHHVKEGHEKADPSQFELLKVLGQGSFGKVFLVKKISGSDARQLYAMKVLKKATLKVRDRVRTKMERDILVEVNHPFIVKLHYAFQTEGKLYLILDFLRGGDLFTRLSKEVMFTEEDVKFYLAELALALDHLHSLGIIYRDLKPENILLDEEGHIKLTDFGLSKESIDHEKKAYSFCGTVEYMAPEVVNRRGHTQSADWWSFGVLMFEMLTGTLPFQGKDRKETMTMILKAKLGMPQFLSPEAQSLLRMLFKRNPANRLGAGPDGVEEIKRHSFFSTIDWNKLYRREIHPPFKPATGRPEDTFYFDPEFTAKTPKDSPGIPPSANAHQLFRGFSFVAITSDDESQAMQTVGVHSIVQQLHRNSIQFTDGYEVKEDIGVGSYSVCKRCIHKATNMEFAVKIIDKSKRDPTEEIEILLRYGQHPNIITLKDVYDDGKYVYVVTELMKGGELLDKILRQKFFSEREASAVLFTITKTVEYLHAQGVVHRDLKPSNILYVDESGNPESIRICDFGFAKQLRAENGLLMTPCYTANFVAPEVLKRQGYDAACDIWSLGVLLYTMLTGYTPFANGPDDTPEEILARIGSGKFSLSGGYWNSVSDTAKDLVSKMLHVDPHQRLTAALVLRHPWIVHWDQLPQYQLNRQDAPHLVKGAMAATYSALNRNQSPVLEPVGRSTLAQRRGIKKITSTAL
Chain of UniProt Q13976 (whole entry, looked up): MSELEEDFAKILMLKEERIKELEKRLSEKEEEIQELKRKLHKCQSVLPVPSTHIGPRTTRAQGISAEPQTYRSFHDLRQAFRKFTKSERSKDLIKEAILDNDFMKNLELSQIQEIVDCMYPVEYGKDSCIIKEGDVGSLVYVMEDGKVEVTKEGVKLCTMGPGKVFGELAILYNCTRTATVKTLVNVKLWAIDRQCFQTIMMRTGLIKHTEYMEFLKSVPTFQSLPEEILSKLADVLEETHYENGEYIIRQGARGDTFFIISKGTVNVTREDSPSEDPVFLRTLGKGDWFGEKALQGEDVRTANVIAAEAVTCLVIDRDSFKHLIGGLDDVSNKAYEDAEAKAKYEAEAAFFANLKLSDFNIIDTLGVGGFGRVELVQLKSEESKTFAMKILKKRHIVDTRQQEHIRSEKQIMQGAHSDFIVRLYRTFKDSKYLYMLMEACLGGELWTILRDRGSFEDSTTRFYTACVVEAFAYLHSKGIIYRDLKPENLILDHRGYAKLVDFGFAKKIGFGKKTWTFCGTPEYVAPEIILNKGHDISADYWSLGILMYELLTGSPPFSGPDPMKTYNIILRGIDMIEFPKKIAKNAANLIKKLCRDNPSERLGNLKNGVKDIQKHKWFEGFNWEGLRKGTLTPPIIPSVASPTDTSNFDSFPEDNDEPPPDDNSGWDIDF
Chain of UniProt Q12866 (whole entry, looked up): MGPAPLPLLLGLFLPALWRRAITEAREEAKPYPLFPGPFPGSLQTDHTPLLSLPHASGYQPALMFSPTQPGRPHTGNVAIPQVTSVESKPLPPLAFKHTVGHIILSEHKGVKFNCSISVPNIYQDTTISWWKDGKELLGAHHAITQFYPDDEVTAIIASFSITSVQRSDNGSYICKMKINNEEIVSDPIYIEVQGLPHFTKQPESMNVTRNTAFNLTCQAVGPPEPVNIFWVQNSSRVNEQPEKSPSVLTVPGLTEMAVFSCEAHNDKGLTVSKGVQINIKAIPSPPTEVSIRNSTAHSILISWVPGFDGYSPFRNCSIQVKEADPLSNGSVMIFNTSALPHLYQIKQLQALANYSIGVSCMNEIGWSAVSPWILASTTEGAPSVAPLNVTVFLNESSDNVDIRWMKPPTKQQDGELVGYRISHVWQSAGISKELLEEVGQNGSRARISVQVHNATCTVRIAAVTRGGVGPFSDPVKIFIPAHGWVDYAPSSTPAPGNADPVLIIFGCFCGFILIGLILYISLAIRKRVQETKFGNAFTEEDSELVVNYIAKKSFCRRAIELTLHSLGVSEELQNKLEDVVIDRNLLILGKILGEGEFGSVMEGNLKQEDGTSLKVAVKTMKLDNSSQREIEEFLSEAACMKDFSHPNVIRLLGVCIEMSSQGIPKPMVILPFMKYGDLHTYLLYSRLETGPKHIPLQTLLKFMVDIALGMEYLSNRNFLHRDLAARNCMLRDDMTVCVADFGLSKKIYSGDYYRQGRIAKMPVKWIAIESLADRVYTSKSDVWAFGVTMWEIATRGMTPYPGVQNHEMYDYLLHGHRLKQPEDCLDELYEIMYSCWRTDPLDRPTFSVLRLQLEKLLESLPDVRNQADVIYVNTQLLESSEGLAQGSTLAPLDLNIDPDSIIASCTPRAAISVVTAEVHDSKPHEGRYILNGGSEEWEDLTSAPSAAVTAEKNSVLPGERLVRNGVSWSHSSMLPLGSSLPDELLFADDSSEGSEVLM
Chain of UniProt P30291 (whole entry, looked up): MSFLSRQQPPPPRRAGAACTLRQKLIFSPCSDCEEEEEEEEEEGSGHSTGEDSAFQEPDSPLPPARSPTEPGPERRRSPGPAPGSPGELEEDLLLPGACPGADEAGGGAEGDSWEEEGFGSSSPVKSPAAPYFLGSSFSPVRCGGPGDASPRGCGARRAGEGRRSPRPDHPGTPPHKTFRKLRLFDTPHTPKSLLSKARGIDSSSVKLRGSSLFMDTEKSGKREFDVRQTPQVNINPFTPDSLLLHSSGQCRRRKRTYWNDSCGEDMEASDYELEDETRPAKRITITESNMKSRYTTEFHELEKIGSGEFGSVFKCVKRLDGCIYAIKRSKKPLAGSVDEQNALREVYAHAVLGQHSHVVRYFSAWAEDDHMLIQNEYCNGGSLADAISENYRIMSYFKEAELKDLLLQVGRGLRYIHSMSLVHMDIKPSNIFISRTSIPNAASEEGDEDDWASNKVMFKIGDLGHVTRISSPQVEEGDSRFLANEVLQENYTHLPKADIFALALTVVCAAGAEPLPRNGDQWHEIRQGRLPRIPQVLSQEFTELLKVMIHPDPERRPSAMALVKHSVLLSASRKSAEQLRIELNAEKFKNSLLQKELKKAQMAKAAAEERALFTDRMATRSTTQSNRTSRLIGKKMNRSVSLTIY

Series 1 — observed: enzyme activity; action: inhibitor; tested at: 0.5 µM; baseline: control; measurement: remaining activity
Structure (SMILES): O=C1NC(=O)c2c1c1c3ccccc3[nH]c1c1[nH]c3cc(Br)ccc3c21
Tyrosine-protein kinase Lck (LCK, Homo sapiens, UniProt P06239): 88.9%
Ephrin type-A receptor 3 (EPHA3, Homo sapiens, UniProt P29320): 100%
Tyrosine-protein kinase ABL2 (ABL2, Homo sapiens, UniProt P42684): 93.8%
Tyrosine-protein kinase Mer (MERTK, Homo sapiens, UniProt Q12866): 69.1%
Ribosomal protein S6 kinase alpha-2 (RPS6KA2, Homo sapiens, UniProt Q15349): 37.9%
Angiopoietin-1 receptor (TEK, Homo sapiens, UniProt Q02763): 93.8%
Mitogen-activated protein kinase kinase kinase 5 (MAP3K5, Homo sapiens, UniProt Q99683): 94.9%
Casein kinase I isoform gamma-3 (CSNK1G3, Homo sapiens, UniProt Q9Y6M4): 94.6%
Serine/threonine-protein kinase Nek1 (NEK1, Homo sapiens, UniProt Q96PY6): 89.1%
MAP kinase-activated protein kinase 2 (MAPKAPK2, Homo sapiens, UniProt P49137): 101%
Mitogen-activated protein kinase kinase kinase 14 (MAP3K14, Homo sapiens, UniProt Q99558): 101%
Wee1-like protein kinase (WEE1, Homo sapiens, UniProt P30291): 74.6%
Dual specificity mitogen-activated protein kinase kinase 2 (MAP2K2, Homo sapiens, UniProt P36507): 105%
Serine/threonine-protein kinase TAO2 (TAOK2, Homo sapiens, UniProt Q9UL54): 94.1%

Series 2 — species: human; matrix: microsomes or S9; tested at: 2 µM; time: 0.5 h; measurement: remaining compound
CSc1nnc(N2C(N)=C(C#N)C3(C(=O)Nc4ccc(F)cc43)C3=C2CC(C)(C)CC3=O)s1 (stereo not shown): 75.1%
Cc1cc(Br)ccc1NC(=O)C(NS(=O)(=O)c1cccs1)c1ccccc1 (stereo not shown): 10.7%
OC(Cn1c(Cc2ccccc2)nc2ccccc21)Cn1c2ccccc2c2ccccc21 (stereo not shown): 19.7%
Cc1c[nH]c(CN(C)C(=O)c2cc(CC(C)C)no2)n1: 96%
CCc1c(C(=O)NNc2oc(C(C)C)nc2C#N)cnn1C(C)(C)C: 2.91%
COCCN1CCS(=O)(=O)c2c(Cl)c(F)nc(Oc3ccc(OC)cc3)c21: 10.4%
COc1ccc(NS(=O)(=O)c2c(C)nn(-c3ccc(-c4ccccc4)nn3)c2C)cc1F: 67.1%
Cc1nc2c(c(-c3ccc(Cl)cc3)c1CO)CN(C1CCCCC1)C2=O: 73.7%
COC(=O)c1c(C)nc2c(c1OS(=O)(=O)C(F)(F)F)CCN2C: 22.9%
CCOC(=O)C(=Cc1cn(-c2ccccc2)nc1-c1ccc(OC)c(OC)c1)C(=O)OCC: 0.0266%

Series 3 — organism: Sarcocystis neurona; observed: parasite growth; tested at: concentration not given; measurement: inhibition
CS(=O)(=O)O.O=C(O[C@H]1C[C@H]2CC3C[C@@H](C1)N2CC3=O)c1c[nH]c2ccccc12: -16.1%
CC(C)NCC(O)c1ccc(O)c(O)c1.Cl (stereo not shown): -2.8%
CC[N+](C)(CC)CCOC(=O)C(O)(c1ccccc1)C1CCCCC1.[Br-] (stereo not shown): -5.2%
Cl.NC(N)=NC(=O)c1nc(Cl)c(N)nc1N.O: -16.4%
CC1=C(C(=O)O)N2C(=O)[C@@H](NC(=O)[C@H](N)c3ccccc3)[C@H]2SC1.O: -6.9%
Cl.O=C(O)/C=C/c1ccc(Cn2ccnc2)cc1: -14.9%
Cc1sc(N)c(C(=O)c2cccc(C(F)(F)F)c2)c1C: -18%
CC(CN1c2ccccc2Sc2ccccc21)N(C)C.Cl (stereo not shown): -11.6%
CC(N/C(=N\C#N)Nc1ccncc1)C(C)(C)C.O (stereo not shown): -6.7%
CN1[C@@H]2CC[C@H]1C[C@@H](OC(c1ccccc1)c1ccccc1)C2.CS(=O)(=O)O: -10.1%
Cc1cccc(CCN2CCC(C(=O)c3ccc(NS(C)(=O)=O)cc3)CC2)n1.Cl.Cl: 2%
Nc1nc(=O)[nH]cc1F: -10.4%

Series 4 — observed: cell-free assay; technique: competition with immobilised ligand; tested at: 1 µM; measurement: remaining binding
SMILES: O=C(Nc1cnc(Oc2ccc(F)cc2)nc1)N1CCc2ncccc2[C@@H]1c1ccc(F)cc1
Ribosomal protein S6 kinase alpha-3, N-terminal kinase domain (RPS6KA3, Homo sapiens, UniProt P51812): 97%
SRSF protein kinase 2 (SRPK2, Homo sapiens, UniProt P78362): 100%
Citron Rho-interacting kinase (CIT, Homo sapiens, UniProt O14578): 88%
Serine/threonine-protein kinase LATS2 (LATS2, Homo sapiens, UniProt Q9NRM7): 99%
Mast/stem cell growth factor receptor Kit (KIT, Homo sapiens, UniProt P10721): 100%
cGMP-dependent protein kinase 1 (PRKG1, Homo sapiens, UniProt Q13976): 89%
Mitogen-activated protein kinase kinase kinase 14 (MAP3K14, Homo sapiens, UniProt Q99558): 100%

Excerpt of the above (series 1):
Serine/threonine-protein kinase TAO2 (TAOK2, Homo sapiens, UniProt Q9UL54): 94.1%
Dual specificity mitogen-activated protein kinase kinase 2 (MAP2K2, Homo sapiens, UniProt P36507): 105%
Casein kinase I isoform gamma-3 (CSNK1G3, Homo sapiens, UniProt Q9Y6M4): 94.6%
